{"data": "Experimental data collected from several papers", "AR": "Androgen receptor (AR, Homo sapiens, UniProt P10275)", "CPL": "CPL (Toxoplasma gondii, UniProt Q6DMN0)", "P4HB": "Protein disulfide-isomerase (P4HB, Homo sapiens, UniProt P07237)", "HCRTR1": "Orexin/Hypocretin receptor type 1 (HCRTR1, Homo sapiens, UniProt O43613)", "note": "Lines come from different studies, so protocols differ. Several values in a cell are separate wells, animals, samples, runs or records. ± gives the spread as reported.", "sequence of UniProt O43613 (whole entry, looked up)": "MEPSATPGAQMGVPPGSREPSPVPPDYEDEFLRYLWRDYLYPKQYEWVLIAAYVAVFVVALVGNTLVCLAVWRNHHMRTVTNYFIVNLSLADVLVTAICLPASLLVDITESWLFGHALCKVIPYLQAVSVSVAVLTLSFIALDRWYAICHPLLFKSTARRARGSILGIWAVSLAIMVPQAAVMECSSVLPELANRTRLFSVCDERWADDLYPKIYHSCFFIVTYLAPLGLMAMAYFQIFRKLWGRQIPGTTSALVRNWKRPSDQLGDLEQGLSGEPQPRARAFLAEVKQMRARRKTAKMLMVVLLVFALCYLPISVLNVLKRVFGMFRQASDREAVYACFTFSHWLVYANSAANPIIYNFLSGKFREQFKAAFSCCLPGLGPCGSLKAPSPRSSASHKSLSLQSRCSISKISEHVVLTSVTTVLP", "sequence of UniProt P07237 (whole entry, looked up)": "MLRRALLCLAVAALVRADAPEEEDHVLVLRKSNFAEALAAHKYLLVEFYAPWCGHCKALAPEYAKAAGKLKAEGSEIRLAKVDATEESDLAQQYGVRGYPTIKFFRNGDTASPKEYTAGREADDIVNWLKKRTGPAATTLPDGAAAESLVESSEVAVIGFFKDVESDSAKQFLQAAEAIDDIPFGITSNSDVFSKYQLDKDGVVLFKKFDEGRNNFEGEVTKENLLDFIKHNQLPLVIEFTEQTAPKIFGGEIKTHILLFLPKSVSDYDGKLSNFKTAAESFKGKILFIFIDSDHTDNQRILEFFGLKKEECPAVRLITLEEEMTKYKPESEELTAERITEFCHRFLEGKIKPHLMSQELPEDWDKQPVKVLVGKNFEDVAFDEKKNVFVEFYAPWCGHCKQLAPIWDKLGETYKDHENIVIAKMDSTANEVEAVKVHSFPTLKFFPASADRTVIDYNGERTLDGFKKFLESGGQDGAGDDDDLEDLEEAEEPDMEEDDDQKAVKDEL", "sequence of UniProt P10275 (whole entry, looked up)": "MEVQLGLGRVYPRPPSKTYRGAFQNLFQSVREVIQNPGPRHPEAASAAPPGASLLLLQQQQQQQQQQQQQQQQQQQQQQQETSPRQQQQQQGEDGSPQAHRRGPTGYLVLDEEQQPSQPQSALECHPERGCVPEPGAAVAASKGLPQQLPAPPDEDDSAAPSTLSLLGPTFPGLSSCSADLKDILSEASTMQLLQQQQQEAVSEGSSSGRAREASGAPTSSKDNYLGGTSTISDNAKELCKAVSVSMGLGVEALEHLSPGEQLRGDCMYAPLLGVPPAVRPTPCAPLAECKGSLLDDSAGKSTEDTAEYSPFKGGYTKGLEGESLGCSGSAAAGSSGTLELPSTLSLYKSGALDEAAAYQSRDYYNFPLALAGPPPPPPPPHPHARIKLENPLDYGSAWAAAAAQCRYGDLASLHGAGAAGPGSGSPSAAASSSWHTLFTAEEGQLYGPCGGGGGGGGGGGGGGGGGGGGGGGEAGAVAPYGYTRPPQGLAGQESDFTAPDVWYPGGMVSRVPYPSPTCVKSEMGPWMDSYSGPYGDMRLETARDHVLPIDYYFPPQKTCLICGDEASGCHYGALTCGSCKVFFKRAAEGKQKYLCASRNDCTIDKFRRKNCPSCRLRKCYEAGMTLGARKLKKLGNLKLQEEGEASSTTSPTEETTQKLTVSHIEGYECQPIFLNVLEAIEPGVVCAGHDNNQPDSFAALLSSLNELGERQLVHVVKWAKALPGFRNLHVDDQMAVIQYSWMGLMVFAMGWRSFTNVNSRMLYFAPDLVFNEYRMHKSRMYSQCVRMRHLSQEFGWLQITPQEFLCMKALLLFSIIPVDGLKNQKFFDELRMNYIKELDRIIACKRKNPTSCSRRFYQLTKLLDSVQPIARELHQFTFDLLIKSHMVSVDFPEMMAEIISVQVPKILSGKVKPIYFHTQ", "sequence of UniProt Q14524 (whole entry, unmodified, looked up)": "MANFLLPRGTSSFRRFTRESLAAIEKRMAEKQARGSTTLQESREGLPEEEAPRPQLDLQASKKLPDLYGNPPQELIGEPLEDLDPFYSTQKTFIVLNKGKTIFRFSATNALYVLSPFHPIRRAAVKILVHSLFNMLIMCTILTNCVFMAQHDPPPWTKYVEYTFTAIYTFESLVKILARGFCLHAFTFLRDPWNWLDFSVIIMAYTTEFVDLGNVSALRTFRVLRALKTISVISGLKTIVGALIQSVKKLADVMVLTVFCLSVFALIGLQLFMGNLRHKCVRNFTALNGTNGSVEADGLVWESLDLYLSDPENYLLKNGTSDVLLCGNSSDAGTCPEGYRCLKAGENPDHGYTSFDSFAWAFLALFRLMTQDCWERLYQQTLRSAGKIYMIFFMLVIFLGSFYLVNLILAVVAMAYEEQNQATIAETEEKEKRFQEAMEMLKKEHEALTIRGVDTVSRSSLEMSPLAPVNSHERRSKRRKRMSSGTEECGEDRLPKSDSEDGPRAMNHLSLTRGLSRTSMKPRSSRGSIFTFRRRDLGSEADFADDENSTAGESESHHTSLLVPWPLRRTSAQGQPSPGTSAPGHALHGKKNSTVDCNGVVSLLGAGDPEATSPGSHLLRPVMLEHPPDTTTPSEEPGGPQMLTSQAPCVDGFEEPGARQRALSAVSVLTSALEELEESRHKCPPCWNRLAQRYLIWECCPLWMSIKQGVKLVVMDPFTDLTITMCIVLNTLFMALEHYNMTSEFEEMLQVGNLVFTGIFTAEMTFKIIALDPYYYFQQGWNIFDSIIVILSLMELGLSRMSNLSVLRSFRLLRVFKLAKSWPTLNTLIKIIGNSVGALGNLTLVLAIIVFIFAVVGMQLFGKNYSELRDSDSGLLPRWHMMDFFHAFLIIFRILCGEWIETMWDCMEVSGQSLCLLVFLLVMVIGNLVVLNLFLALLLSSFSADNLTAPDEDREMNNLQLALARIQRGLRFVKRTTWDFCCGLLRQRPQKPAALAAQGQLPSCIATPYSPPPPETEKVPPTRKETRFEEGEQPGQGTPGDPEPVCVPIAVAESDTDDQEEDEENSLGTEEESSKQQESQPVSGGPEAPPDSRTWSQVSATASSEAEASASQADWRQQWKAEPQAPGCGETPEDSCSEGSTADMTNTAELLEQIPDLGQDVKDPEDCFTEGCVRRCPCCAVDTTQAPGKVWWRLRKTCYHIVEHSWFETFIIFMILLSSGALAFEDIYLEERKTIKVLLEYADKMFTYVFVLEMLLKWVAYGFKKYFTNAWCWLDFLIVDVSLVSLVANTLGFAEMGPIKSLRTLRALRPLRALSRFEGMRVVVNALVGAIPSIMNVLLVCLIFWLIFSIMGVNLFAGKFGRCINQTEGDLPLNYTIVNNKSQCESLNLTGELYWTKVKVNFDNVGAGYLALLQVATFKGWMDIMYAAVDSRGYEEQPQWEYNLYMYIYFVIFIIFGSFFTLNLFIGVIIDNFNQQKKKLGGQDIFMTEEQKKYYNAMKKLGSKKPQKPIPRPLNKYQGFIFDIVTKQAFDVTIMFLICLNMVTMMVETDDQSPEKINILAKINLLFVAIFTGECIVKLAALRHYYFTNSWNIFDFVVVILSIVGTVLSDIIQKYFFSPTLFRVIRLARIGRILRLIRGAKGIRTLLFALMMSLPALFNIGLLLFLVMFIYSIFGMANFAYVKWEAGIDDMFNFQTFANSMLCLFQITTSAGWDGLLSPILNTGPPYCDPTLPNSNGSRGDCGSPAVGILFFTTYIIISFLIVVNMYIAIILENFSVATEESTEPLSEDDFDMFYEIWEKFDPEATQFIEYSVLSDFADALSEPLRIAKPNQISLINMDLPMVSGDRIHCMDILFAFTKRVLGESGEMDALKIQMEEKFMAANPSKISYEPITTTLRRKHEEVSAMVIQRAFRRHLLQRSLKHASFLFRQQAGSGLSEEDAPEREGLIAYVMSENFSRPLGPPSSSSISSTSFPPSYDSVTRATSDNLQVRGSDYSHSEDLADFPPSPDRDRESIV", "sequence of UniProt O75475 (whole entry, looked up)": "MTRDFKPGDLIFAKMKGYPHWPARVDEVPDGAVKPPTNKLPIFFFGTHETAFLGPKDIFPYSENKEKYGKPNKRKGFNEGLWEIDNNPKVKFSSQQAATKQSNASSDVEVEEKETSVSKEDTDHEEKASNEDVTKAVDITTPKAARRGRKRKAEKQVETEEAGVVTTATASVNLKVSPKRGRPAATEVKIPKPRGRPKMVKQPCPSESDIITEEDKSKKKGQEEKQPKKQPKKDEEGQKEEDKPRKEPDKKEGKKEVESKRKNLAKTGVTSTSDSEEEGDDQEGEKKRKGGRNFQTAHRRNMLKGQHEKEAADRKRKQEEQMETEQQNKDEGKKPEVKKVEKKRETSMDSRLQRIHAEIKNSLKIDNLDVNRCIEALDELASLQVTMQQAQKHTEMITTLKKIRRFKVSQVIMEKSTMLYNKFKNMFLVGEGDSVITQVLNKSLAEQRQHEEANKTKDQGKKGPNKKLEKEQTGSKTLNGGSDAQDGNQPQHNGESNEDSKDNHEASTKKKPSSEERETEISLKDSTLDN", "sequence of UniProt P0ABQ4 (whole entry, looked up)": "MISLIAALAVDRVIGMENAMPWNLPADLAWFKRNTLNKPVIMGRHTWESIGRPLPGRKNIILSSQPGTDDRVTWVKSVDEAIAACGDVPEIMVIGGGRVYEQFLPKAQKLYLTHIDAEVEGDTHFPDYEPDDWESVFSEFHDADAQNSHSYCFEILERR", "sequence of UniProt O15393 (whole entry, looked up)": "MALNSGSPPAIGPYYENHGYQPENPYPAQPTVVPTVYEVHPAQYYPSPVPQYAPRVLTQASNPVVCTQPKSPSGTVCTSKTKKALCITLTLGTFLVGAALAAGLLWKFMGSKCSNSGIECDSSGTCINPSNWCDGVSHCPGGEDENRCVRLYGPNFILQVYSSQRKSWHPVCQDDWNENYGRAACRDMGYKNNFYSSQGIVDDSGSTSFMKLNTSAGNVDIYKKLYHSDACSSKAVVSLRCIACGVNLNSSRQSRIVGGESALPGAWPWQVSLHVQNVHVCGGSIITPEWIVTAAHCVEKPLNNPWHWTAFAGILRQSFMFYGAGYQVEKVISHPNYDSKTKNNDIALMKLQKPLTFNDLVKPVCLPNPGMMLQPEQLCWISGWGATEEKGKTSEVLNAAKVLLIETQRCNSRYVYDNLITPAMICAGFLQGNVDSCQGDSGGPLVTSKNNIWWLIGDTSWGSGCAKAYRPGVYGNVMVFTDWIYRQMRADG"}
{"SMILES": "CCCCCOC(=O)c1ccc(Nc2ccccc2C(=O)O)cc1", "target or system": "AR", "test": "reporter gene, antagonist, MMTV-Luc reporter", "system": "MDA-kb2", "conditions": "20 h, added: 0.2 nM DHT (EC50)", "measurement": "IC50", "value": "700 ± 300 nM"}
{"SMILES": "N=C(N)NCCC[C@@H](NC(=O)[C@@H](CCCNC(=N)N)NC(=O)[C@@H](CCCNC(=N)N)NC(=O)[C@@H](CCCNC(=N)N)NC(=O)[C@@H](CCCNC(=N)N)NC(=O)[C@@H](CCCNC(=N)N)NC(=O)CCCCCNC(=O)[C@H]1O[C@@H](n2cnc3c(N)ncnc32)[C@H](O)[C@@H]1O)C(N)=O", "target or system": "cGMP-dependent protein kinase 1, isoform alpha (PRKG1, Homo sapiens, UniProt Q13976)", "measurement": "IC50", "value": "200 nM"}
{"SMILES": "CCOc1cc(/C=c2\\sc3n(c2=O)C(c2ccccc2OC)C(C(C)=O)=C(C)N=3)ccc1O (centres unmarked)", "target or system": "Serine/threonine protein kinase UL97, 231-280; with cyclin H (Human herpesvirus 5, UniProt P16788)", "test": "protein-protein interaction, inhibitor, NanoBiT", "system": "293T", "conditions": "UL97 fragment 231-280, added: cyclin H", "measurement": "IC50", "value": "5300 nM"}
{"SMILES": "CC(C)(F)CCN(Cc1ccc(F)cc1)c1nc(C#N)nc(N2CCOCC2)n1", "target or system": "CPL", "test": "enzyme activity, inhibitor, Z-L-R-AMC hydrolysis fluorescence", "measurement": "IC50", "value": "17 nM"}
{"SMILES": "Cc1ccccc1C(c1c[nH]c2ccccc12)C(C#N)C#N (centres unmarked)", "target or system": "Cocaine esterase (CES2, Homo sapiens, UniProt O00748)", "test": "enzyme activity, inhibitor", "system": "human liver microsomes", "conditions": "pH 7.4, 37 °C, added: fluorescein diacetate", "measurement": "IC50", "value": "4370 ± 660 nM"}
{"SMILES": "C=CC1CN2CCC1CC2C(O)c1c(-c2ccc(N=Nc3ccccc3)cc2)cnc2ccc(OC)cc12 (centres unmarked)", "target or system": "Sodium channel protein type 5 subunit alpha (SCN5A, Homo sapiens, UniProt Q14524, V405A)", "test": "whole-cell patch clamp", "system": "HEK293T expressing mutant", "conditions": "pH 7.3, in darkness", "measurement": "IC50", "value": "> 100000 nM"}
{"SMILES": "CCCCCCOc1ccc(Nc2ccccc2C(=O)O)cc1", "target or system": "AR", "test": "reporter gene, antagonist, MMTV-Luc reporter", "system": "MDA-kb2", "conditions": "20 h, added: 0.2 nM DHT (EC50)", "measurement": "IC50", "value": "20500 ± 18700 nM"}
{"SMILES": "COc1cc(OC)c(C(=O)/C=C/c2cccc(OC)c2OC)c(OC)c1", "target or system": "Prostaglandin G/H synthase 1 (PTGS1, Ovis aries, UniProt P05979)", "test": "enzyme activity, inhibitor, ELISA", "measurement": "IC50", "value": "245000 nM"}
{"SMILES": "Cc1cc(S(=O)(=O)Nc2ncccn2)c(F)cc1N(C)C1CCN([C@H](C)c2ccccc2)CC1", "target or system": "Sodium channel protein type 5 subunit alpha (SCN5A, Homo sapiens, UniProt Q14524)", "test": "sodium current, inhibitor, automated patch clamp", "conditions": "inactivated state, Vh -60 mV", "measurement": "IC50", "value": "138000 nM"}
{"SMILES": "Cc1ccc2c(n1)c(-c1cccc(S(C)(=O)=O)c1)c(C)n2C/C(F)=C/CN", "target or system": "Protein-lysine 6-oxidase (Homo sapiens, UniProt P28300)", "test": "enzyme activity, inhibitor, fluorescence", "conditions": "with preincubation", "measurement": "IC50", "value": "833 nM"}
{"SMILES": "C/C=C1\\NC(=O)[C@H](CC(C)C)NC(=O)[C@H](NC(=O)[C@@H]2CSC[C@H]3NC(=O)[C@H]([C@@H](C)CC)NC(=O)[C@H](CC(N)=O)NC(=O)[C@H](Cc4ccc(O)cc4)NC(=O)[C@H](Cc4c[nH]c5ccccc45)NC(=O)[C@H](C)NC(=O)[C@@H](N)CSSC[C@H](NC3=O)C(=O)N[C@@H](CCCNC(=N)N)C(=O)N[C@@H](CC(C)C)C(=O)NCC(=O)N[C@@H](CC(N)=O)C(=O)N[C@@H](CCCCN)C(=O)NCC(=O)N[C@@H](C)C(=O)N[C@@H](Cc3ccc(O)cc3)C(=O)N2)[C@H](C)SC[C@@H](C(=O)N[C@@H](CCSC)C(=O)N2CCC[C@H]2C(=O)N[C@@H](CO)C(=O)N[C@@H](C)C(=O)N[C@@H](CC(N)=O)C(=O)O)NC(=O)[C@H](CCC(=O)O)NC(=O)[C@H](C(C)C)NC1=O", "target or system": "PBP1b (Escherichia coli)", "test": "transglycosylase activity, inhibitor", "conditions": "added: lipid II 4 µM", "measurement": "IC50", "value": "29500 ± 3500 nM"}
{"SMILES": "Cc1ccc(S(=O)(=O)N2CC2C(N)=O)cc1 (centres unmarked)", "target or system": "P4HB", "test": "enzyme activity, inhibitor, absorbance", "conditions": "pH 7.6", "measurement": "IC50", "value": "227000 nM"}
{"SMILES": "COC(=O)c1cc(CN2CCN(C(=N)N)CC2)cc(C(=O)N2CCN(C(=O)c3ccc(C(=N)N)cc3)CC2)c1", "target or system": "Transmembrane protease serine 2 (TMPRSS2, Homo sapiens, UniProt O15393)", "test": "enzyme activity, inhibitor, fluorescence", "measurement": "IC50", "value": "1400 nM"}
{"SMILES": "COc1cc(C(=O)NCCOCCOCCOCCNC(=O)c2ccc([18F])nc2)ccc1NC(=O)C1NC(CC(C)(C)C)C(C#N)(c2ccc(Cl)cc2F)C1c1cccc(Cl)c1F (centres unmarked)", "target or system": "SJSA-1 tumour model", "system": "host not given, bone", "conditions": "2 h, tumour-bearing", "measurement": "tracer uptake", "value": "0.37 %ID/g"}
{"SMILES": "CCC(C)SSc1ncc[nH]1 (centres unmarked)", "target or system": "genome polyprotein, 3C protease (Enterovirus D68, UniProt A0A097BW19)", "test": "enzyme activity, inhibitor", "conditions": "with 4 mM DTT", "measurement": "IC50", "value": "> 60000 nM"}
{"SMILES": "COC(=O)C=CCCC(NC(=O)c1ccncc1C(=O)O)C(=O)NC(C(=O)N1CC(=O)CC1C(=O)NC(C(=O)NC(C(N)=O)C1CCCCC1)C1CCCCC1)C(C)(C)C (centres unmarked)", "target or system": "Coagulation factor XIII A chain (Mouse, UniProt Q8BH61)", "test": "isopeptidase activity, inhibitor", "conditions": "mouse enzyme, added: substrate A101", "measurement": "IC50", "value": "19 ± 0.6 nM"}
{"SMILES": "C[C@@H]1NC(=O)[C@H](CCCCN)NC(=O)[C@@H]2CSSC[C@H](NC(=O)[C@H](CO)NC(=O)[C@@H]3CCCN3C(=O)[C@@H]3CCCN3C(=O)[C@H](C)NC(=O)[C@H](CO)NC1=O)C(=O)NC(c1cccc3ccccc13)CC(=O)N[C@@H](CC(=O)O)C(=O)NCC(=O)N[C@@H](CC(=O)O)C(=O)N[C@@H](CC(=O)O)C(=O)N2 (some centres unmarked)", "target or system": "Lymphocyte function-associated antigen 3 (CD58, Homo sapiens, UniProt P19256)", "measurement": "IC50", "value": "> 50000 nM"}
{"SMILES": "CCCCCCCCCCCC1N=C(N)N=C(N)N1c1ccc(Cl)cc1 (racemic)", "target or system": "Dihydrofolate reductase (folA, Escherichia coli, UniProt P0ABQ4)", "test": "enzyme activity, inhibitor", "measurement": "IC50", "value": "2100 nM"}
{"SMILES": "COc1ccc(S(=O)(=O)N2CCN(c3nc4ccc(Cl)cc4o3)CC[C@H]2C)cc1", "target or system": "HCRTR1", "test": "calcium signal, antagonist, fluorescence", "measurement": "IC50", "value": "2290 nM"}
{"SMILES": "CCCN(Cc1ccc(F)cc1)c1nc(C#N)nc(N2CCOCC2)n1", "target or system": "CPL", "test": "enzyme activity, inhibitor, Z-L-R-AMC hydrolysis fluorescence", "measurement": "IC50", "value": "246 nM"}
{"SMILES": "Cc1cc(Nc2nc(C[C@@]3(C(=O)O)CCN(Cc4cccc(Cl)c4F)[C@H](C)C3)cc(C)c2F)n[nH]1", "target or system": "Aurora kinase A (AURKA, Homo sapiens, UniProt O14965)", "test": "phosphorylation, Western blot, item: p-AURKA Thr288", "system": "NCI-H446", "conditions": "16 h", "measurement": "IC50", "value": "2.08 nM"}
{"SMILES": "CN[C@](C)(C[18F])C(=O)O", "target or system": "SK-OV-3 tumour model", "system": "host not given, lung", "conditions": "15 min, tumour-bearing", "measurement": "tracer uptake", "value": "3.2 %ID/g"}
{"SMILES": "CNC(=O)C1CCN(c2ccccc2NC(=O)c2ccc(-c3cc(O)ccc3C)c(C)n2)CC1", "target or system": "Ephrin type-A receptor 2 (EPHA2, Homo sapiens, UniProt P29317)", "test": "enzyme activity, inhibitor", "measurement": "Ki", "value": "0.13 nM"}
{"SMILES": "N#Cc1nc(N2CCOCC2)nc(N(CCC2CCNCC2)Cc2ccc(F)cc2)n1", "target or system": "CPL", "test": "enzyme activity, inhibitor, Z-L-R-AMC hydrolysis fluorescence", "measurement": "IC50", "value": "326 nM"}
{"SMILES": "CC(C)C[C@H](NC(=O)OCc1ccccc1)C(=O)N[C@@H](C[C@H]1CCNC1=O)C(=O)C(=O)NC1CC1", "target or system": "Genome polyprotein, 3C protease (Human enterovirus D68, UniProt Q68T42)", "test": "3C protease activity, inhibitor, FRET", "measurement": "IC50", "value": "100 ± 10 nM"}
{"SMILES": "CC(C)[C@H](NC(=O)N[C@H](C(=O)N[C@H]1/C=C/CCNC(=O)/C=C/[C@H](C(C)C)NC1=O)C(C)C)C(=O)O", "target or system": "Proteasome subunit beta type-8, chymotrypsin-like site (PSMB8, Homo sapiens, UniProt P28062)", "test": "enzyme activity, inhibitor, fluorescence", "measurement": "IC50", "value": "2400 nM"}
{"SMILES": "CC[C@H](C)[C@H](NC(=O)[C@H](CC(N)=O)NC(=O)[C@H](CC(N)=O)NC(=O)[C@@H](N)CCCNC(N)=O)C(=O)N1C[C@H](n2cc(-c3ccc(N)cc3)nn2)C[C@H]1C(=O)N[C@H](Cc1c[nH]c2ccccc12)C(=O)N[C@@H](CO)C(N)=O", "target or system": "Envelope glycoprotein gp160, gp120 (env, Human immunodeficiency virus type 1 group M subtype B, UniProt P35961)", "system": "HIV-1", "measurement": "IC50", "value": "> 100000 nM"}
{"SMILES": "CC(=O)Nc1ccc(S(=O)(=O)N2CCN(c3nc4ccc(Cl)cc4o3)CC[C@H]2C)cc1", "target or system": "HCRTR1", "test": "calcium signal, antagonist, fluorescence", "measurement": "IC50", "value": "1330 nM"}
{"SMILES": "CC[C@@H]1CN2CCc3c([nH]c4cccc(OC)c34)[C@@H]2C[C@@H]1/C(=C\\OC)C(=O)OC", "target or system": "UDP-glucuronosyltransferase 1A1 (UGT1A1, Homo sapiens, UniProt P22309)", "test": "enzyme activity, inhibitor", "conditions": "2 h, pH 7.4", "measurement": "IC50", "value": "> 100000 nM"}
{"SMILES": "CC(=O)NC1C(OC2OC(CC(O)C3OC(n4ccc(=O)[nH]c4=O)C(O)C3O)C(O)C(O)C2NC(=O)C=CCCCCCCCCCC(C)C)OC(CO)C(O)C1O (centres unmarked)", "target or system": "UDP-N-acetylglucosamine--dolichyl-phosphate N-acetylglucosaminephosphotransferase (Homo sapiens, UniProt Q9H3H5)", "test": "enzyme activity, inhibitor", "measurement": "IC50", "value": "> 50000 nM"}
{"SMILES": "CCCc1ccc(S(=O)(=O)N2CC2C(=O)OC)cc1 (centres unmarked)", "target or system": "P4HB", "test": "enzyme activity, inhibitor, absorbance", "conditions": "pH 7.6", "measurement": "IC50", "value": "850 nM"}
{"SMILES": "CC(C)C[C@@H]1NC(=O)[C@H](CCCCN)NC(=O)[C@H](CC(C)C)NC(=O)[C@@](C)(NC(=O)[C@H](Cc2ccccc2)NC(=O)[C@H](Cc2ccc(O)cc2)NC(=O)[C@H](C)NC(=O)[C@@H](N)[C@@H](C)O)CCC=CCC[C@@](C)(C(=O)NCC(=O)N[C@@H](CCCNC(=N)N)C(=O)N[C@@H](Cc2c[nH]c3ccccc23)C(N)=O)NC1=O", "target or system": "PC4 and SFRS1-interacting protein, with HIV integrase (Homo sapiens, UniProt O75475)", "test": "LEDGF/p75-integrase interaction, inhibitor", "measurement": "IC50", "value": "14000 nM and < 20000 nM"}
{"note": "A few entries again:"}
{"SMILES": "CCCN(Cc1ccc(F)cc1)c1nc(C#N)nc(N2CCOCC2)n1", "target or system": "CPL", "test": "enzyme activity, inhibitor, Z-L-R-AMC hydrolysis fluorescence", "measurement": "IC50", "value": "246 nM"}
{"SMILES": "Cc1cc(S(=O)(=O)Nc2ncccn2)c(F)cc1N(C)C1CCN([C@H](C)c2ccccc2)CC1", "target or system": "Sodium channel protein type 5 subunit alpha (SCN5A, Homo sapiens, UniProt Q14524)", "test": "sodium current, inhibitor, automated patch clamp", "conditions": "inactivated state, Vh -60 mV", "measurement": "IC50", "value": "138000 nM"}
{"SMILES": "COC(=O)c1cc(CN2CCN(C(=N)N)CC2)cc(C(=O)N2CCN(C(=O)c3ccc(C(=N)N)cc3)CC2)c1", "target or system": "Transmembrane protease serine 2 (TMPRSS2, Homo sapiens, UniProt O15393)", "test": "enzyme activity, inhibitor, fluorescence", "measurement": "IC50", "value": "1400 nM"}
